{"data": "Measured values collected from several papers", "note": "Numbered parts are unrelated; each lists some results of a single study."}
{"data": "Set 1", "target": "RING finger protein unkempt homolog, zinc fingers 1-6, SBP tag (UNK, Homo sapiens, UniProt Q9C0B0, residues 30-357)", "method": "RNA Bind-n-Seq", "molecule type": "RNA", "matrix": "in vitro", "concentration": "100 nM", "setting": "RNA with constant flanks, vertebrate orthologous sites, ends assumed", "reference": "input RNA pool", "direction": "higher = stronger binding", "shared flanks, not repeated": "GGGAGUUCUACAGUCCGACGAUC … CAACAGAGGAUUGAGCAUCA", "chain of UniProt Q9C0B0 (30-357, looked up)": "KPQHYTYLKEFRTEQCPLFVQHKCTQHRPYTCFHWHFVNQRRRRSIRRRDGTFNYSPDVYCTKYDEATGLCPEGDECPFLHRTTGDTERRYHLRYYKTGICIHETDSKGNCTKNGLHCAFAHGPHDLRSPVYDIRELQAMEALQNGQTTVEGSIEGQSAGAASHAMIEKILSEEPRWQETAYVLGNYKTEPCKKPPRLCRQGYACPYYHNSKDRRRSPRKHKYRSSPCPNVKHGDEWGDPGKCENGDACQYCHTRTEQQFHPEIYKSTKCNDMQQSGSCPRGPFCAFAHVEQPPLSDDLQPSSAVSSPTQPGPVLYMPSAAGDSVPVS"}
{"Sequence": "CCUACAAUAAUGAAAACCUACAGGAAUUUUUUUAUUUUUCAUUUUCUCCUUAGGCAUAUUUAGUAUUUUUCCCCCAGGCAGAUCAUUCUGAGUGUGCGAGUGUGUGUGCACAUGUUACAA", "bound/input enrichment": "2.16 ratio"}
{"Sequence": "CUCUAUGGGCCUCGCAGAGUUGAAAUAAUGGAAGAGGAAAGUGAAUAGUGAUCUUCAUUUUAGUAUUUAUGCUUAGAUGUGAAAAUAAAUGUUAUUUGUUGAUUAUUUCUAUAAUCCAGA", "bound/input enrichment": "0.685 ratio"}
{"Sequence": "AAGAACAAGAGCAGCAUAGACUGAGCUUUGGGGAAAUGAGCUUUGCUUUUUAUAUUUAAAUAGAUACUUUUAUAUGAUGGGUGCUUUUGAGUGUGAAUGCAGCAGGCUCUCGCAUUUCAG", "bound/input enrichment": "1.56 ratio"}
{"Sequence": "GUUGCGAUCCCUUUAAUAUGCACAGAAAACUAUCAAAGAAAAACUUGCGUGCAAUUGACCUGCAUGACGCAACUUUUCUAACUGCCAAGUUUGGAAGACAGUUUGUACCUGGUUGGAAGC", "bound/input enrichment": "0.441 ratio"}
{"Sequence": "CCGAAAGGCCAAAUUCCCUCCUCCCUUCUACUGCUUCUACCAACUGGAAGCACAGAAAACUAGAAUUUCAUUUAUUUUGUUUUUUAAAAAUAUAUGUUGAUUUCUUGUAACAUCCAAUAG", "bound/input enrichment": "0.479 ratio"}
{"Sequence": "GUGACUUUGGACGUCCGCUGUACCUGCUCGCAGAGGCUGCUUGGUGUGCGGCCCCGGCUGUGCUUUCUCUGCGUUCUCUGUGCGUCGUAGGCCUCCGCAGCCAACAUGCUCCGCCAGAUC", "bound/input enrichment": "0.324 ratio"}
{"Sequence": "UGCCGGGCUGGCCCCAGUCCCACCUCUGUUUAUUCUGUACUACAACCUGUAAAUAACAUUUAGCAUUCCUAUUGUAACAAAAUUAAUUUUUAUGAAAUAAAUUAUAUUUCCUAGUCUAAU", "bound/input enrichment": "1.43 ratio"}
{"data": "Set 2", "target": "RNA binding protein fox-1 homolog 2, RRM domain, GST-SBP tag (RBFOX2, Homo sapiens, UniProt O43251-10, residues 100-194)", "method": "RNA Bind-n-Seq", "molecule type": "RNA", "matrix": "in vitro", "concentration": "365 nM", "setting": "natural RNA segment, single round, ends assumed", "reference": "no-protein control", "direction": "higher = stronger binding", "shared flanks, not repeated": "GGGAGUUCUACAGUCCGACGAUC … UGGAAUUCUCGGGUGCCAA", "Target sequence (chain)": "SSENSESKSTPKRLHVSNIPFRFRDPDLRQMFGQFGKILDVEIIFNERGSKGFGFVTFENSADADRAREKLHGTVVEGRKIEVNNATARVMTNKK"}
{"Sequence": "GUGCUCCCCCAACUAUGUAUCAGAUAAGAUUCUUUGAUCCCGACUCUGUGUGUGCGAGCACGCGUGUCUGUGUUUGUGUGUGCAUAGUUCUGUGGUUUUAGACACGCUUU", "RBNS enrichment (R)": 0.316}
{"Sequence": "AGUGCUACUGUCUGUGCCCUCCUAGGCCACACAGCCUGAGGGAGCUUGCAUGGGUCUGCCCGUGUCGACAGACCCUAGGCUCCCAGUCUCUCUCCUUCAUGUGCUAUUCU", "RBNS enrichment (R)": 0.514}
{"Sequence": "GGGCCCAUGCCGAGUGGAUGCCCCCCACCCUCUCUCCUGGGCCACUGAGGAGAGGGGAGAGAGCUGGUGAUUCCAGAAGGGUGACCCGGACAGCCUAGCUGGGGGCUCCC", "RBNS enrichment (R)": 0.284}
{"Sequence": "GUUCUGAGAGUGCCCGCAGGCUGCUGCGUCCUGGCCCCUCUGUAGUGGCUGCGGGCGUCUUGGUUGAAUCUUUUGCUACAAACCAUGUUUGCGUUUGAGCUCUCCAGGAU", "RBNS enrichment (R)": 0.946}
{"Sequence": "AUUAAUUCAGUGCCUUUUUCCUCUAAGCAUACUCUUGGUCCAUGCCCCAUGCAGUGUCAACUGAUGUUUAAGCUACAGAGCAUUGUUGUAGUGGUGAGGGCCCUCUGUUG", "RBNS enrichment (R)": 0.526}
{"Sequence": "AAACAAAAAACCCUUCAAUAGCAUCCUUGAGGAAAAGGAACAGCAGUUGACUGUAAGUGCUUCCCUGUCAUCCAUGUGCAAUUUCCCGACAUUCCACCUCCAUCUCUGCU", "RBNS enrichment (R)": 15.5}
{"Sequence": "ACUGGCUCUUGGGAGAGCAAAAGGGACCUCCCGGACUCCUUAAAGCCCAGGCCGGCCAUCUUCUGCUGCUGGUACUUGGAUGGGCAAUGGUCACUGUGUUUCCACACAGC", "RBNS enrichment (R)": 0.559}
{"Sequence": "ACCAAUGAAAGACAGUACAUGUAAUAAUAUUUUCCUCAGUACAAUUUUGCUGGCCUUAACUGGUAUCAAACGCUGUCAUUGAGAUGUUUUCAAAGAACAUUGAGUUGUAU", "RBNS enrichment (R)": 0.346}
{"Sequence": "CCAGCAUCCCCAAACUGGUACUCCCUGACCCAGGGCCCCAAACCUGGGCUCUUACAGAGCCUCCAUGAGUCAAGCCCCCUCCCCACACCUGGACUCCAGAAUUCACCCUC", "RBNS enrichment (R)": 0.472}
{"Sequence": "GUUUAUGUAUAUAUGUGAUUCUGAUAAAAUAGACAUUGCUAUUCUGUUUUUUAUAUGUAAAAACAAAACAAGAAAAAUAGAGAAUUCUACAUACUAAAUCUCUCUCCUUU", "RBNS enrichment (R)": 0.502}
{"Sequence": "UACCAACAAUUUUUUUAGAUUGAAAAUAUAUUAAAUAAGAAUCCAUCUAGUCUAUUUGUGUUAAAACAUGCUUUCAGAUGGAAGACGAACAUUCAUCUUAUAAAUGAACA", "RBNS enrichment (R)": 0.614}
{"Sequence": "GCGGUGACGACUGCUCCAUGGGGAAGCUAAAAUAUCCUCGCCAGUUCCGGAGCACCCUUGUGAAGAAAAUGUGUUCUUUCUUCCGAUGGGUCCAGUUGCAGUGGCCAAUU", "RBNS enrichment (R)": 0.421}
{"data": "Set 3", "target": "Histone acetyltransferase KAT6A, winged helix 1, GST fusion (KAT6A, Homo sapiens, UniProt Q92794, residues 1-85)", "method": "protein binding microarray", "molecule type": "double-stranded DNA, one strand shown", "matrix": "in vitro", "concentration": "not given", "setting": "8-mer, flanks averaged, mean of 2 arrays, mostly near background", "reference": "not given", "direction": "higher = stronger binding", "Target sequence (chain)": "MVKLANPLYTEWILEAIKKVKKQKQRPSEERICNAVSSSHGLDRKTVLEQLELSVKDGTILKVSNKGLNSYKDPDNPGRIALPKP"}
{"Sequence": "GGCCACGA", "E-score": -0.102}
{"Sequence": "ACAGTCCG", "E-score": -0.0488}
{"Sequence": "AGAGGGCT", "E-score": -0.0481}
{"Sequence": "ACGCAGGA", "E-score": -0.0966}
{"Sequence": "GATATCGC", "E-score": 0.0541}
{"Sequence": "AACCGGCA", "E-score": 0.162}
{"Sequence": "CCTTCTGA", "E-score": -0.145}
{"Sequence": "CTTGCAAC", "E-score": -0.217}
{"Sequence": "CGTCTCTC", "E-score": 0.0664}
{"Sequence": "CACCTAGA", "E-score": -0.23}
{"Sequence": "CAAAGAGC", "E-score": 0.086}
{"Sequence": "ATGTGATC", "E-score": -0.0254}
{"Sequence": "AATCATTG", "E-score": -0.261}
{"Sequence": "GACGACCC", "E-score": 0.0747}
{"Sequence": "ATGAGGTG", "E-score": -0.266}
{"Sequence": "CAAGCGGA", "E-score": 0.136}
{"Sequence": "ACAACGAA", "E-score": -0.186}
{"Sequence": "GAAAATCA", "E-score": -0.0707}
{"data": "Further values, each from its own experiment"}
{"Substance": "PhoQ, residues 284 288 289 292 302 303 TAVSDG", "target": "PhoP, residues 12 14 15 18 19 LHATL (Escherichia coli, UniProt P23836)", "test": "Sort-seq, item: YFP reporter", "test system": "E. coli", "conditions": "PhoQ-PhoP variant library, with: 10 µM Mg2+", "how to read": "reference: high Mg2+ state, higher = stronger signaling", "measurement": "fold induction", "value": 0.955}
